# Experimental data collected from several papers.
# Each line is one published result; not all experiments were run side by side. Numbers after ± are the reported error.
Structure (SMILES),assay,system,conditions,half-life [h]
CCOC(=O)C1=C(CN2CCC[C@@H]2C(=O)Nc2ccc(B(O)O)cc2)NC(c2nccs2)=N[C@H]1c1ccc(F)cc1Br,,human liver microsomes,"1 µM, pH 7.4",2.82
Cc1ccc2c(c1)C(=O)[C@]1(O)CCN(c3ccc4nc(C)ccc4c3)C1=N2.Cl,,plasma,"intravenous, 2 mg/kg",10.3
N#Cc1ccc(Nc2nc(N)cc(Oc3c(F)cc(-c4ccc(C#N)cc4)cc3F)n2)cc1,,"monkey plasma, diluted in PBS",1 µM,16.2
CCCCCN(C)CCC(O)(P(=O)(O)O)P(=O)(O)OP(=O)(O)OC[C@H]1O[C@@H](n2ccc(N)nc2=O)C(F)(F)[C@@H]1O (stereo partly drawn),hydrolysis,HEPES buffer,"pH 8.2, 37 °C",7.6
C=CC(=O)NC1CCN(c2ncc3ncnc(Nc4ccc(Oc5ccc6c(c5)ncn6C)c(C)c4)c3n2)CC1,,healthy men,"oral, 60 mg single dose, added: carbamazepine",23.9
CC(=O)O[C@H]1C(=O)[C@@]2(C)[C@H]([C@H](OC(=O)c3ccccc3)[C@]3(O)C[C@H](OC(=O)[C@H](OC(=O)OCc4cc(P(=O)(O)O)ccc4OP(=O)(O)O)[C@@H](NC(=O)c4ccccc4)c4ccccc4)C(C)=C1C3(C)C)[C@]1(OC(C)=O)CO[C@@H]1C[C@@H]2O,,simulated gastric fluid,"10 µM, 2 h incubation, pH 1.2",> 2
N[C@@H](CC(=O)N1CCc2c(nc(C(F)(F)F)nc2C(F)(F)F)C1)CN1CC(F)(F)CCC1=O,,"healthy Korean adults, fasted, plasma","oral, 50 mg single dose, separate tablets, added: enavogliflozin 0.3 mg",18 ± 1.75
O=C(Nc1ccc2c(c1)OCO2)C(F)F,,PBS with 10% acetonitrile,"250 µM, pH 7.4, added: GSH 5 mM",≥ 240
Cc1cccc(CNC(=O)c2cn(CCNC(=O)c3ccccc3Sc3c([N+](=O)[O-])ncn3C)c3cc4c(cc3c2=O)OCO4)n1,blood stability,Beagle dog blood,"1 µM, 37 °C",3.55
N[C@@H](CC(=O)O)C(=O)OC(C(=O)O)c1ccccc1[N+](=O)[O-].O=C(O)C(F)(F)F (mixture of isomers),"hydrolysis, 1H NMR","aqueous citrate-ammonium sulfate, 12.5% DMSO-d6","pH 4.2, room temperature, dark, isomer B",29 ± 2
CC1=NN(/C(=N\c2ccccc2)Nc2nnc(C)s2)C(c2ccc(C)cc2)S1 (stereo not drawn),plasma stability,mouse plasma,,0.0483
O=C(O)c1cc(O)c(O)c(O)c1,LC-MS/MS,"male Ross broilers, serum","intravenous, 0.49 mg/kg BW",1.18 ± 1.17
C[C@H](NC(=O)/C(C#N)=C/c1cccc(Br)n1)c1ccccc1,LC-MS/MS,"patients, plasma","oral, 2 mg/kg, cycle 1 day 1",2.8
COC(=O)[C@H](N)CSN=O,,PBS,"10 µM, pH 7.72, room temperature, dark",6.77 ± 0.505
C[C@H](N)C(=O)N[C@@H](C[SeH])C(=O)N1CCC[C@H]1C(=O)N[C@@H](CO)C(=O)N[C@@H](CC(=O)O)C(=O)N[C@@H](Cc1ccc(O)cc1)C(=O)N[C@@H](C[SeH])C(=O)N[C@@H](CCCCN)C(=O)N[C@@H](CCCNC(=N)N)C(=O)N[C@@H](CCCCN)C(=O)NCC(=O)N[C@@H](C[SeH])C(=O)NCC(N)=O,HRMS,"Tris-HCl buffer with TCEP, air","50 µM, pH 7.5, 4 °C, added: EDTA 100 equiv",132
CC(C)c1nc(N(C)S(C)(=O)=O)nc(-c2ccc(F)cc2)c1/C=C/[C@@H](O)C[C@@H](O)CC(=O)O,,"healthy volunteers, plasma","oral, 10 mg single dose, day 1, given alone, BCRP probe",18.8
C=C1CN2CCC[C@@]2(COc2nc(N3CCN(C(=O)/C=C/c4cccc5c4CNCC5)C[C@@H]3C)c3cc(Cl)c(-c4nc(N)cc(C)c4C(F)(F)F)c(F)c3n2)C1,,,"1 µM, pH 7.4, added: 5 mM cysteine",6.95
NCc1cc2c(cc1F)C(=O)N(C1CCC(=O)NC1=O)C2 (stereo not drawn),,"male Göttingen minipig, whole blood",,0.258
CC[C@H](C)C(=O)O[C@H]1C[C@@H](C)C=C2C=C[C@H](C)[C@H](CC[C@@H]3C[C@@H](O)CC(=O)O3)[C@H]21,,Beagle dog whole blood,5 µM,2.71
COc1ccc2[nH]c([S+]([O-])Cc3ncc(C)c(OC)c3C)nc2c1 (stereo not drawn),,"healthy Chinese volunteers, plasma","oral, 20 mg, enteric-coated tablets, all CYP2C19 genotypes",1.33 ± 0.94
O=C1Nc2c(C(F)(F)F)cccc2[C@@]1(c1ccc(O)cc1)N1CCCC(F)(F)C1,,simulated gastric fluid with pepsin,"100 µM, pH 1.2, 37 °C",0.167 to 1.28
Cc1ccc2[nH]c(=S)n(Cc3cccnc3)c(=O)c2c1,plasma stability,human plasma,,> 6.22
CCCCCCCCCCCCCCCC(=O)N[C@@H](CCC(=O)NCCCC[C@@H]1NC(=O)[C@H]([C@@H](C)CC)NC(=O)[C@@H](NC(=O)[C@@H]2CCCN2C(=O)[C@H](Cc2ccccc2)NC(=O)[C@H](Cc2c[nH]cn2)NC(=O)[C@@H](NC(=O)[C@H](CC(=O)O)NC(=O)CC(C)C)[C@@H](C)O)CSSC[C@@H](C(=O)N[C@@H](CCCCN)C(N)=O)NC(=O)CNC(=O)[C@H](CCCCN)NC(=O)[C@H](CO)NC(=O)[C@H](CCCNC(=N)N)NC(=O)[C@@H]2CCCN2C(=O)[C@H](CCC(=O)O)NC(=O)[C@H](Cc2ccccc2)NC1=O)C(=O)O,,"healthy volunteers, plasma","subcutaneous, 30 mg single, lyophilised formulation",26.6 ± 6.39
OCc1ccc(-c2nn(Cc3ccccc3)c3ccccc23)o1,,human liver microsomes,added: NADH,0.12
Cc1ccc(NC(=O)c2ccc(CN3CCN(C)CC3)cc2)cc1Nc1nccc(-c2cncc(-c3oncc3C)c2)n1,,"Parkinson's disease patients, plasma","oral, 50 mg/day, 7 days, steady state",24.8 ± 3.7
Oc1ccc([C@@H](O)c2cc(-c3ncnc4cc(N5CCOCC5)ccc34)c(F)cc2Cl)nn1,geometric mean,"healthy volunteers, plasma","oral, 100 mg, fasted oral suspension",3.8
CC(=O)O[C@]1(C(C)=O)CC[C@H]2[C@@H]3C=C(Cl)C4=CC(=O)[C@@H]5C[C@@H]5[C@]4(C)[C@H]3CC[C@@]21C,substrate depletion,phenobarbital/β-naphthoflavone-induced rat liver microsomes,"1 µM, pH 7.4, 37 °C, added: NADPH",0.221
Cc1ccc(OCCN)cc1C(=O)N[C@H](C)c1cccc(-c2ccsc2)c1,,mouse liver microsomes,1 µM,> 0.833
CN[C@H](CC(C)C)C(=O)N[C@H]1C(=O)N[C@@H](CC(N)=O)C(=O)N[C@H]2C(=O)N[C@H]3C(=O)N[C@H](C(=O)N[C@H](C(=O)O)c4cc(O)cc(O)c4-c4cc3ccc4O)[C@H](O)c3ccc(c(Cl)c3)Oc3cc2cc(c3O[C@@H]2O[C@H](CO)[C@@H](O)[C@H](O)[C@H]2O[C@H]2C[C@](C)(N)[C@H](O)[C@H](C)O2)Oc2ccc(cc2Cl)[C@H]1O,,"guinea pig, tissue cage fluid","local, 10 mg/mL, poloxamer 407 hydrogel",5.7
CNC(=O)c1ccc(N2C(=S)N(c3ccc(C#N)c(C(F)(F)F)c3)C(=O)C2(C)C)cc1F,,,"oral, 5 mg/kg",10.5 ± 1.7
Cc1c(C)n(Cc2cccc(OC(C)(C)C(=O)O)c2)c2ccc(C(=O)N[C@@H](C)c3ccc(C(C)(C)C)cc3)cc12,,human liver microsomes,"1 µM, added: microsomes 1 mg/mL",> 1
CC(C)(C)c1nc(-c2cccc(N(Cc3cc(C(=O)[O-])ccc3OP(=O)([O-])[O-])S(=O)(=O)c3c(F)cccc3F)c2F)c(-c2ccnc(N)n2)s1.[Na+].[Na+].[Na+],,HBSS,"10 µM, 2 h incubation, pH 6.5",> 2
CN(C)CCCCC(=O)Nc1ccc(NC(=S)NC(=O)c2ccc(C(C)(C)C)cc2)cc1,,male human serum,"150 µM, 37 °C",0.8 ± 0.5
Nc1cccc2c1CN(C1CCC(=O)NC1=O)C2=O (stereo not drawn),metabolic stability,liver microsomes,2 µM,> 6
Cc1nc2ccc(OCc3ccc(C(F)(F)F)cc3)cc2[nH]1,,human liver S9,"1 µM, pH 7.4",3.73
CC(=O)O[C@@]12CO[C@@H]1C[C@H](O)[C@@]1(C)C(=O)[C@H](O)C3=C(C)[C@@H](OC(=O)[C@H](O)[C@@H](NC(=O)OC(C)(C)C)c4ccccc4)C[C@@](O)([C@@H](OC(=O)c4ccccc4)[C@H]21)C3(C)C,,"patients, plasma","intravenous, 75 mg/m^2, without co-administered drug",15
Ic1nccs1,,"PBS with glutathione, 5% acetonitrile",pH 7.4,0.9
CC(C)NCC(O)COc1cccc2ccccc12 (stereo not drawn),substrate depletion,phenobarbital/β-naphthoflavone-induced rat liver microsomes,"1 µM, pH 7.4, 37 °C, added: NADPH",0.0545
COc1ccc([C@@H](O)c2cc(-c3ncnc4cc(N5CCOCC5)ccc34)c(F)cc2Cl)nn1,geometric mean,"healthy volunteers, plasma","oral, 100 mg, high-fat fed tablet",3.34
CCOc1c([C@H](C)n2nc(C)c3c(N)ncnc32)cc(Cl)c(F)c1[C@@H]1CNC(=O)C1,,rat liver microsomes,"0.5 µM, pH 7.4, 37 °C, added: NADPH 1 mM",9.52
CCCCC[C@H](O)CC[C@@H]1[C@H]2Cc3cccc(OCC(=O)O)c3C[C@H]2C[C@H]1O,LC-MS/MS,"Japanese PAH patients, male, plasma","inhaled, 54 µg, geometric mean",0.67
O=C(CCC(=O)c1cc(C(F)(F)F)cc(C(F)(F)F)c1)ON1C(=O)CCC1=O,HPLC-MS,BBS buffer,pH 10.2,< 0.0167

# Repeated from above:
Structure (SMILES),assay,system,conditions,half-life [h]
C=CC(=O)NC1CCN(c2ncc3ncnc(Nc4ccc(Oc5ccc6c(c5)ncn6C)c(C)c4)c3n2)CC1,,healthy men,"oral, 60 mg single dose, added: carbamazepine",23.9
CC(=O)O[C@H]1C(=O)[C@@]2(C)[C@H]([C@H](OC(=O)c3ccccc3)[C@]3(O)C[C@H](OC(=O)[C@H](OC(=O)OCc4cc(P(=O)(O)O)ccc4OP(=O)(O)O)[C@@H](NC(=O)c4ccccc4)c4ccccc4)C(C)=C1C3(C)C)[C@]1(OC(C)=O)CO[C@@H]1C[C@@H]2O,,simulated gastric fluid,"10 µM, 2 h incubation, pH 1.2",> 2
N[C@@H](CC(=O)N1CCc2c(nc(C(F)(F)F)nc2C(F)(F)F)C1)CN1CC(F)(F)CCC1=O,,"healthy Korean adults, fasted, plasma","oral, 50 mg single dose, separate tablets, added: enavogliflozin 0.3 mg",18 ± 1.75
O=C(Nc1ccc2c(c1)OCO2)C(F)F,,PBS with 10% acetonitrile,"250 µM, pH 7.4, added: GSH 5 mM",≥ 240
Cc1cccc(CNC(=O)c2cn(CCNC(=O)c3ccccc3Sc3c([N+](=O)[O-])ncn3C)c3cc4c(cc3c2=O)OCO4)n1,blood stability,Beagle dog blood,"1 µM, 37 °C",3.55
N[C@@H](CC(=O)O)C(=O)OC(C(=O)O)c1ccccc1[N+](=O)[O-].O=C(O)C(F)(F)F (mixture of isomers),"hydrolysis, 1H NMR","aqueous citrate-ammonium sulfate, 12.5% DMSO-d6","pH 4.2, room temperature, dark, isomer B",29 ± 2
